Earlier results as cited in several papers.
Protocols differ between the studies behind these lines. Numbers after ± are the reported error.

Compound	tested on	test	test system	setting	measurement	result
O=S(=O)([O-])C(F)(F)C(F)(F)C(F)(F)C(F)(F)C(F)(F)C(F)(F)C(F)(F)C(F)(F)F.[K+]	CYP2D6	inhibitor	–	Tox21 screening	IC50	inactive
COc1ccc(-c2nn3c(-c4ccco4)nnc3s2)cc1OC	DCTPP1	inhibitor	–	–	IC50	19 nM
CCCCCCCCCCCCCC(=O)O[C@@H]1[C@@H](C)[C@@]2(O)[C@@H](C=C(CO)C[C@]3(O)C(=O)C(C)=C[C@@H]23)[C@@H]2C(C)(C)[C@]12OC(C)=O	phorbol ester binding site	binding	–	historical reference value	IC50	0.79 nM
CC1(C)NC(=O)N(c2ccc(F)c(C(F)(F)F)c2)C1=O	Schistosoma mansoni	–	juvenile, infected mice	oral, 50 mg/kg single dose	worm burden reduction	0%
CC[C@H](C)[C@@H](C(=O)O[C@@H](CC(C)C)C(=O)N[C@@H](CC(C)C)C(=O)N[C@@H](C)/C=C/C(=O)N1C(=O)C=C(OC)[C@@H]1C)N(C)C	cathepsin B	enzyme activity, inhibitor	–	–	IC50	11700 nM
CO[C@@H]1[C@H](O)[C@@H](COP(=O)(O)OP(=O)(O)OP(=O)(O)O)O[C@H]1n1cnc2c(N)ncnc21	HCV NS5B polymerase	inhibitor	–	–	IC50	50000 nM
COc1ccc2c(c1)[nH]c1c(C)nccc12	human DYRK1B	kinase activity, inhibitor	–	–	IC50	28 nM
CC(C)[C@H](NC(=O)[C@H](CCCNC(=N)N)NC(=O)N[C@@H](Cc1ccccc1)C(=O)O)C(=O)N[C@H](C=O)CCCNC(=N)N	CTSA	–	–	–	IC50	2000 nM
CC12C(=O)OC(=O)C1(C)C1CCC2O1 (stereo not shown)	protein phosphatase 1 catalytic subunit	enzyme activity, inhibitor	–	–	IC50	200 to 8000 nM
CC1(C)NC(=O)N(c2ccc(F)c(C(F)(F)F)c2)C1=O	Fasciola hepatica	–	–	concentration not given	anthelmintic activity	inactive
CO/C1=C\C(C)=C\[C@@H](C)[C@@H](O)[C@@H](C)C/C(C)=C/C=C/[C@H](OC)[C@@H]([C@@H](C)[C@@H](O)[C@H](C)[C@@]2(O)C[C@@H](O)[C@H](C)[C@@H](C(C)C)O2)OC1=O	ATP6AP1	inhibitor	–	–	IC50	100 nM
O=C(O)[C@H](c1ccccc1)[C@H]1CCCCN1	–	–	human, by CES1 genotype, plasma	oral, 10 mg methylphenidate, single dose, median	half-life	8 h
Cc1cc(-c2ccccc2)nnc1NCCN1CCOCC1	acetylcholinesterase (rat striatum)	inhibitor	–	–	IC50	85000 nM
CC(C)(C)c1nc(-c2cccc(NS(=O)(=O)c3c(F)cccc3F)c2F)c(-c2ccnc(N)n2)s1	NEK9	inhibitor	–	–	IC50	1 nM
COC(=O)[C@@H]1C[C@H](OC(C)=O)C(=O)[C@H]2[C@@]1(C)CC[C@H]1C(=O)O[C@H](c3ccoc3)C[C@]21C	kappa opioid receptor T110S	–	–	–	Ki	28 ± 5.3 nM
CC(C)C[C@H](NC(=O)[C@H](Cc1ccccc1)NC(=O)c1cnccn1)B(O)O	CTSA	enzyme activity, inhibitor, MS-based activity-based protein profiling	–	–	IC50	2500 nM
Cc1nc2c([N+](=O)[O-])c(Cl)c(Cl)cc2n1Cc1ccc([B-]23OC(=O)C[N+]2(C)CC(=O)O3)cc1 (stereo not shown)	dCTPase DCTPP1	inhibitor	–	–	IC50	47 nM
O=C(NC[C@H]1CN(c2ccc(N3CCOCC3=O)cc2)C(=O)O1)c1ccc(Cl)s1	factor Xa, clot-associated	inhibitor	–	closed non-flow system	IC50	0.7 nM
CCCCCOc1ccc(-c2ccc(-c3ccc(C(=O)N[C@H]4C[C@@H](O)[C@@H](O)NC(=O)[C@@H]5[C@@H](O)[C@@H](C)CN5C(=O)[C@H]([C@@H](C)O)NC(=O)[C@H]([C@H](O)[C@@H](O)c5ccc(O)cc5)NC(=O)[C@@H]5C[C@@H](O)CN5C(=O)[C@H]([C@@H](C)O)NC4=O)cc3)cc2)cc1	–	–	moderate hepatic impairment patients	50 mg single dose	volume of distribution	36.5 ± 8 L

Repeated from above:
Compound	tested on	test	test system	setting	measurement	result
Cc1cc(-c2ccccc2)nnc1NCCN1CCOCC1	acetylcholinesterase (rat striatum)	inhibitor	–	–	IC50	85000 nM
